# Published values from different studies.
# Parts stem from different laboratories: compare values within a part only.
# Sequence of UniProt P51957 (whole entry, looked up): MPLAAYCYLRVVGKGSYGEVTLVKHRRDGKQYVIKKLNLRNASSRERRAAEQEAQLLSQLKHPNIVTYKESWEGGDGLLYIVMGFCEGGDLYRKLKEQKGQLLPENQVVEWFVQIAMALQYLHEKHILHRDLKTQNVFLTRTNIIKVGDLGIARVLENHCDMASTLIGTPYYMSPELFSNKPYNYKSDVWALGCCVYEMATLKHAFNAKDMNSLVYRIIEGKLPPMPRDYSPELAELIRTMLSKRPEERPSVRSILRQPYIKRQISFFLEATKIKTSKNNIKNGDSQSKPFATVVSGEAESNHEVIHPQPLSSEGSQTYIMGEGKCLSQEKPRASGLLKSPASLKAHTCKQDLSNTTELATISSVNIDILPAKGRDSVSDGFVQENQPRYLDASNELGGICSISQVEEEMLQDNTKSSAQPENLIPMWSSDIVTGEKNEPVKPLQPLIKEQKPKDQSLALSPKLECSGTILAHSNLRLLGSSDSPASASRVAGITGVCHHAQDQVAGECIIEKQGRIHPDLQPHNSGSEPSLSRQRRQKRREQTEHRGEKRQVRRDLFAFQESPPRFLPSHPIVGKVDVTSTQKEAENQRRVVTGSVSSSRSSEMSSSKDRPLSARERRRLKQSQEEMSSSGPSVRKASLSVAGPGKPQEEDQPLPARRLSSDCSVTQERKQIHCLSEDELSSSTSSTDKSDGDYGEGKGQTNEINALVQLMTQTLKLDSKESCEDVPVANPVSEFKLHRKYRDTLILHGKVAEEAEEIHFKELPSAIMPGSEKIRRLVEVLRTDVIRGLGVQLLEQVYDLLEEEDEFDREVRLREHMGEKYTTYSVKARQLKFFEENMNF
# Sequence of UniProt P51817 (whole entry, looked up): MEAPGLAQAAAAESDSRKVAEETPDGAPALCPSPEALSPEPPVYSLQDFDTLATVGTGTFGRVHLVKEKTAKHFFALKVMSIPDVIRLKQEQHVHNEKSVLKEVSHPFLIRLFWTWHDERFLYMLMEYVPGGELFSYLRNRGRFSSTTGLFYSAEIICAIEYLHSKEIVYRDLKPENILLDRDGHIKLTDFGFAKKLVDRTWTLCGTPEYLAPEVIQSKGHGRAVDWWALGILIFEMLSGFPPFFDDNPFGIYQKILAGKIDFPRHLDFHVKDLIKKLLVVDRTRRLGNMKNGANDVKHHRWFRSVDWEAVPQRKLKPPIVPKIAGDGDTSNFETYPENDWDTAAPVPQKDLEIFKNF
# Sequence of UniProt Q14012 (whole entry, looked up): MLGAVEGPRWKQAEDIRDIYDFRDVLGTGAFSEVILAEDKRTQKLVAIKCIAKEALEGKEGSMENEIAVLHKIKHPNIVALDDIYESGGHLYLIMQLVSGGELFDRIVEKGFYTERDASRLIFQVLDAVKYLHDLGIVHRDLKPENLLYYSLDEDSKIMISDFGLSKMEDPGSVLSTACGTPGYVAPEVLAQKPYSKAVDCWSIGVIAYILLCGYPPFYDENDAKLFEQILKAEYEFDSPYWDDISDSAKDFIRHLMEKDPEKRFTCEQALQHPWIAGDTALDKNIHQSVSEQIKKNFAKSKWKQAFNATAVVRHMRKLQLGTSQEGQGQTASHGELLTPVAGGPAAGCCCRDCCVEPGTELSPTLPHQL
# Sequence of UniProt P35968 (whole entry, looked up): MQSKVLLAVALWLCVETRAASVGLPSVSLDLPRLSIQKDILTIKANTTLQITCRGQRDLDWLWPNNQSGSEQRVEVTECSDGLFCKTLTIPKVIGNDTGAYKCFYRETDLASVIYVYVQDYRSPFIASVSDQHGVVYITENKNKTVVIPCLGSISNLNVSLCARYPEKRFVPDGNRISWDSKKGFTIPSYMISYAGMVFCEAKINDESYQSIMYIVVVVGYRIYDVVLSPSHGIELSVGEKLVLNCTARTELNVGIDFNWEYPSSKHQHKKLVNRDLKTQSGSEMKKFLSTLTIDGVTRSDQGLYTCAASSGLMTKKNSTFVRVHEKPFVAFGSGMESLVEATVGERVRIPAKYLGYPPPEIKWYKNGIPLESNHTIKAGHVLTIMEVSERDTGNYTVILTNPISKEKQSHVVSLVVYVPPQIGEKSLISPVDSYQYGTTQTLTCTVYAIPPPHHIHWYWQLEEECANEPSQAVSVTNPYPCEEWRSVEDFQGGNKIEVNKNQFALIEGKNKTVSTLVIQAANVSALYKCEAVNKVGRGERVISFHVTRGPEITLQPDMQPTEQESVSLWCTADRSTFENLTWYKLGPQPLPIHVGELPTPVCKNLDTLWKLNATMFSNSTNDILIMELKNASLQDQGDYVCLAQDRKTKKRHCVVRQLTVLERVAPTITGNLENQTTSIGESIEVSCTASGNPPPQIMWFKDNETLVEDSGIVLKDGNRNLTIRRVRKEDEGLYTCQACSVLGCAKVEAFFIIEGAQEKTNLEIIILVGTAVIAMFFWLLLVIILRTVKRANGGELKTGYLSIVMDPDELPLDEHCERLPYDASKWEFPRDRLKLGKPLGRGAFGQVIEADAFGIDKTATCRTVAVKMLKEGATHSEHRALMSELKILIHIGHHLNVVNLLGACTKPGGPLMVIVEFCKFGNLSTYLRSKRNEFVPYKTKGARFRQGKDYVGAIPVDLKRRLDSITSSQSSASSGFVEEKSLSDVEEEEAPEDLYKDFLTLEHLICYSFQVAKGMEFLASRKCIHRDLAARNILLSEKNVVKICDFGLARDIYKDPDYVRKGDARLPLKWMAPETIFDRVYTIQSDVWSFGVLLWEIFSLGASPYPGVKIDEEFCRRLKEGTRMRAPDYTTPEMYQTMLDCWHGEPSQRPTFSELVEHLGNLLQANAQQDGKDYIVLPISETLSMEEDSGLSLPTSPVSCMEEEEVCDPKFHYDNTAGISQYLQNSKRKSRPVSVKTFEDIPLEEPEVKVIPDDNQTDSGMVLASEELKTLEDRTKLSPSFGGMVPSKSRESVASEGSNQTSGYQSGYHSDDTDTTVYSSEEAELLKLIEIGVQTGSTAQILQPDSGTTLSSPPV
# Sequence of UniProt Q9H1R3 (whole entry, looked up): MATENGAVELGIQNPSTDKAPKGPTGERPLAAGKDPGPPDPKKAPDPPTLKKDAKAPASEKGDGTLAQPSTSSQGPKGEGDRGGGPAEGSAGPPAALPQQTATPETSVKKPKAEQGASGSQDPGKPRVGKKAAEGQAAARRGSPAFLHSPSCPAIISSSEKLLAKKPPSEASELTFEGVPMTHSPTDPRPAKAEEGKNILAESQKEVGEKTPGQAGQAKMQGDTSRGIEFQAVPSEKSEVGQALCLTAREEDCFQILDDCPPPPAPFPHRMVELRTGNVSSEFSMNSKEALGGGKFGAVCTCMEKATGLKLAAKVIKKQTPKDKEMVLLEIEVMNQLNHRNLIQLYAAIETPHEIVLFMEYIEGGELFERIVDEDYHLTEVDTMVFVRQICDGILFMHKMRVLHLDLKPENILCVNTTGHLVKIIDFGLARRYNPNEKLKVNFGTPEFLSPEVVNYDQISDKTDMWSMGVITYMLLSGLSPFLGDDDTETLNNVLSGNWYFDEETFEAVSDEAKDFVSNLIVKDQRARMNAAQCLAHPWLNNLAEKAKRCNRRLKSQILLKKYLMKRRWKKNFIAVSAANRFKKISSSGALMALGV
# Sequence of UniProt P52564 (whole entry, looked up): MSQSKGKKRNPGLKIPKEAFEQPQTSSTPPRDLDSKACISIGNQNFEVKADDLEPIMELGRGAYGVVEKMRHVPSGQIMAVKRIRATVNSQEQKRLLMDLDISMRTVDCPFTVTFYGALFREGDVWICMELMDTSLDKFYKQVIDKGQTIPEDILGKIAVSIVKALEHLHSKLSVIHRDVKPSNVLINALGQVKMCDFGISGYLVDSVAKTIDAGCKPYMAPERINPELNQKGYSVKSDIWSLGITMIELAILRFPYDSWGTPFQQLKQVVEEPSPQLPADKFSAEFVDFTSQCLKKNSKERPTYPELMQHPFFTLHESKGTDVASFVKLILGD

# Series 1 — SMILES: CSc1cccnc1N1CCN(Cc2nc3ccccc3[nH]2)CC1; method: competition with immobilised ligand; concentration: 1 µM
target,test,remaining binding
"Calcium/calmodulin-dependent protein kinase type 1 (CAMK1, Homo sapiens, UniProt Q14012)",cell-free assay,100%
"Receptor-type tyrosine-protein kinase FLT3 (FLT3, Homo sapiens, UniProt P36888, K663Q)",cell-free assay,93%
"Vascular endothelial growth factor receptor 2 (KDR, Homo sapiens, UniProt P35968)",cell-free assay,89%
"Interleukin-1 receptor-associated kinase 3 (IRAK3, Homo sapiens, UniProt Q9Y616)",cell-free assay,94%
"Cyclin-dependent kinase-like 2 (CDKL2, Homo sapiens, UniProt Q92772)",binding,84%
"Receptor-type tyrosine-protein kinase FLT3 (FLT3, Homo sapiens, UniProt P36888, D835Y)",cell-free assay,100%
"Serine/threonine-protein kinase N2 (PKN2, Homo sapiens, UniProt Q16513)",cell-free assay,62%
"Homeodomain-interacting protein kinase 3 (HIPK3, Homo sapiens, UniProt Q9H422)",cell-free assay,96%
"Dual specificity mitogen-activated protein kinase kinase 6 (MAP2K6, Homo sapiens, UniProt P52564)",cell-free assay,100%
"Epidermal growth factor receptor (EGFR, Homo sapiens, UniProt P00533, del747-752/P753S)",cell-free assay,100%
"Phosphatidylinositol 5-phosphate 4-kinase type-2 beta (PIP4K2B, Homo sapiens, UniProt P78356)",cell-free assay,100%
"Serine/threonine-protein kinase RIO3 (RIOK3, Homo sapiens, UniProt O14730)",cell-free assay,100%
"Calcium/calmodulin-dependent protein kinase kinase 2 (CAMKK2, Homo sapiens, UniProt Q96RR4)",cell-free assay,100%
"Receptor-type tyrosine-protein kinase FLT3 (FLT3, Homo sapiens, UniProt P36888, D835V)",cell-free assay,84%
"Casein kinase I isoform epsilon (CSNK1E, Homo sapiens, UniProt P49674)",cell-free assay,91%
"Myosin-IIIa (MYO3A, Homo sapiens, UniProt Q8NEV4)",binding,100%
"MAP kinase-activated protein kinase 2 (MAPKAPK2, Homo sapiens, UniProt P49137)",cell-free assay,80%
"cAMP-dependent protein kinase catalytic subunit PRKX (PRKX, Homo sapiens, UniProt P51817)",cell-free assay,100%
"Tyrosine-protein kinase ABL1, phosphorylated (ABL1, Homo sapiens, UniProt P00519)",cell-free assay,78%
"Myosin light chain kinase 2, skeletal/cardiac muscle (MYLK2, Homo sapiens, UniProt Q9H1R3)",binding,100%
"Platelet-derived growth factor receptor beta (PDGFRB, Homo sapiens, UniProt P09619)",cell-free assay,100%
"Epidermal growth factor receptor (EGFR, Homo sapiens, UniProt P00533, A750P/del747-749)",cell-free assay,100%
"Cyclin-dependent kinase 14 (CDK14, Homo sapiens, UniProt O94921)",cell-free assay,100%
"Tyrosine-protein kinase Blk (BLK, Homo sapiens, UniProt P51451)",cell-free assay,96%
"Serine/threonine-protein kinase Nek4 (NEK4, Homo sapiens, UniProt P51957)",cell-free assay,88%

# Series 2 — observed: enzyme activity; action: inhibitor; concentration: 10 µM
# Target: Calcium/calmodulin-dependent protein kinase type II subunit alpha (CAMK2A, Homo sapiens, UniProt Q9UQM7)
# Sequence of UniProt Q9UQM7 (whole entry, looked up): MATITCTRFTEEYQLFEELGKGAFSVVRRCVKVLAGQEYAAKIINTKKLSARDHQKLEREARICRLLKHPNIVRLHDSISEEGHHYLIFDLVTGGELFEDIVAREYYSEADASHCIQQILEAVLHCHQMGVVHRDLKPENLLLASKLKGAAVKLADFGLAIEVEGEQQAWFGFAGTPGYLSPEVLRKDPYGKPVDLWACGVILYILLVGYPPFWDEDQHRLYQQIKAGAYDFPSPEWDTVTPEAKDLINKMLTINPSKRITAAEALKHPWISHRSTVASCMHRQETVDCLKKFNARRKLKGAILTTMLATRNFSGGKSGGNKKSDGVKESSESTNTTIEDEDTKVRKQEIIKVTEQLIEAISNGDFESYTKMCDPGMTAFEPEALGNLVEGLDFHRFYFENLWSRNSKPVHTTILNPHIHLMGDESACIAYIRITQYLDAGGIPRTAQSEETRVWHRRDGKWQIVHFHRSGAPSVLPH
SMILES,inhibition [%]
COc1cc([C@H]2OC[C@H]3[C@@H]2CO[C@H]3c2ccc(OC)c(OC)c2)ccc1O,-70
CC(=O)NS(=O)(=O)c1ccc(NC(=O)c2ccccc2C(=O)O)cc1,4
CC(=O)/C=C/c1ccc(O)c(O)c1,-42
CC(=O)N[C@@H](C)C(=O)O,10
C=C1CC[C@@H]2[C@](C)(COC(=O)CCC(=O)O)[C@H](OC(=O)CCC(=O)O)CC[C@@]2(C)[C@@H]1/C=C/C1=CCOC1=O,-1
COc1cc([C@H]2OC[C@H]3[C@@H]2CO[C@@H]3c2ccc(O)c(OC)c2)ccc1O,18
O=C(O)/C=C\C(=O)O,9
CC(/C=C/C=C(\C)C(=O)O[C@@H]1O[C@H](CO[C@@H]2O[C@H](CO)[C@@H](O)[C@H](O)[C@H]2O)[C@@H](O)[C@H](O)[C@H]1O)=C\C=C\C=C(C)\C=C\C=C(/C)C(=O)O[C@@H]1O[C@H](CO[C@@H]2O[C@H](CO)[C@@H](O)[C@H](O)[C@H]2O)[C@@H](O)[C@H](O)[C@H]1O,4
CO[C@@H]1[C@@H](OC(N)=O)[C@@H](O)[C@H](Oc2ccc3c(O)c(NC(=O)c4ccc(O)c(CC=C(C)C)c4)c(=O)oc3c2C)OC1(C)C,-5
CC(C)=CCOc1ccc2ccc(=O)oc2c1,-4
CC1=COC(=O)[C@H]2[C@@H]1CC[C@@H]2C,-63
O=c1c(O[C@@H]2O[C@@H](CO)[C@H](O)[C@H]2O)c(-c2ccc(O)c(O)c2)oc2cc(O)cc(O)c12,-10
Cc1ccc(C(=O)O)cc1,-26
O=C(O)c1c[nH]c(=O)[nH]c1=O,9
CCCCCCCCCCCC(=O)OC,-10
CC(C)(CO)c1cc2cc(NC(=O)C3(c4ccc5c(c4)OC(F)(F)O5)CC3)c(F)cc2n1C[C@@H](O)CO,6
O=C(O)CC(=O)OC[C@H]1O[C@@H](Oc2c(-c3ccc(O)c(O)c3)oc3cc(O)cc(O)c3c2=O)[C@H](O)[C@@H](O)[C@@H]1O,0
c1ccc(CNc2ncnc3[nH]cnc23)cc1,-14
N[C@@H](Cc1ccc(O)c([N+](=O)[O-])c1)C(=O)O,-29
C=C(NC(=O)c1csc(-c2nc3c(cc2O)-c2nc(cs2)C(=O)N[C@@H]([C@@H](C)O)C(=O)N/C(=C/C)c2nc(cs2)C(=O)N[C@H]2C[C@H](O)C(=O)OCc4cccc5[nH]c(c(C)c45)C(=O)SC[C@H](NC(=O)c4csc2n4)c2nc-3cs2)n1)C(N)=O,-65
N[C@@H](Cn1ccc(=O)c(O)c1)C(=O)O,2
CCOc1ccc(Cc2cc([C@@H]3O[C@H](SC)[C@@H](O)[C@H](O)[C@H]3O)ccc2Cl)cc1,-12
C=C1CC/C=C(\C)CC[C@@H]2[C@@H]1CC2(C)C,1
C[C@@H](O)CO,-20

# Series 3 — observed: enzyme activity; action: inhibitor; concentration: 0.5 µM; baseline: control
# Target: Tyrosine-protein kinase Yes (YES1, Homo sapiens, UniProt P07947)
# Sequence of UniProt P07947 (whole entry, looked up): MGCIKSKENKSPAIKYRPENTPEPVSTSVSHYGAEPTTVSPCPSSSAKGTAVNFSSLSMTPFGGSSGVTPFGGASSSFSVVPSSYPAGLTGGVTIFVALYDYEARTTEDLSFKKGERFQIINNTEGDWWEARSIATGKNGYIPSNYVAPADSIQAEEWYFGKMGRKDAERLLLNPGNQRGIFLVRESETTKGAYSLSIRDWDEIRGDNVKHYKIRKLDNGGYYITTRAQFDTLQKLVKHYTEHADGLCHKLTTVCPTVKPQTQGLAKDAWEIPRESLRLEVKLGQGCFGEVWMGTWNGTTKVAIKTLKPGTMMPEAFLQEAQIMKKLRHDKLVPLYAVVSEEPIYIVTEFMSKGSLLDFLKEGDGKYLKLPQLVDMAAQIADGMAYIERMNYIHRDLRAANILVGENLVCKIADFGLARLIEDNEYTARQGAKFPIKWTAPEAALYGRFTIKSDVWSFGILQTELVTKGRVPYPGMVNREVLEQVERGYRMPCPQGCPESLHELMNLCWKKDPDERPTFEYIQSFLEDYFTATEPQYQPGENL
Compound,remaining activity [%]
O=c1cc(N2CCOCC2)oc2c(-c3ccccc3)cccc12,101
COc1ccc(COc2ccc(Cc3cnc(N)nc3N)cc2OC)cc1,94.8
O=Nc1c(-c2c(O)[nH]c3cc(Br)ccc23)[nH]c2ccccc12,15.8
O=C1Nc2ccccc2/C1=C\c1c(Cl)[nH]c2ccccc12,93.9
c1ccc(-c2n[nH]c3c2oc2ccccc23)cc1,86.1
Oc1cccc(-c2nc(N3CCOCC3)c3oc4ncccc4c3n2)c1,94.3
CN(C)S(=O)(=O)c1ccc2c(c1)/C(=C/c1cc3c([nH]1)CCCC3)C(=O)N2,13.5
O=C1NC(=O)c2c1c1c3ccccc3[nH]c1n1cncc21,79.9
COc1cccc(-c2cc(=O)c3ccccc3o2)c1N,93.5
O=C(c1cc2cc(O)ccc2[nH]1)c1cc2cc(O)ccc2[nH]1,18.8
CCCNC(=O)Nc1ccc(Oc2ncnc3cc(OC)c(OC)cc23)cc1Cl,82.1
CCCCc1c(-c2ccc(OC)cc2)[nH]c2nccnc12,45.7
N#Cc1cnc2cnc(NCc3cccnc3)cc2c1Nc1ccc(F)c(Cl)c1,93.6
COc1ccc2c(c1)c(C1=C(c3c[nH]c4ccccc34)C(=O)NC1=O)cn2CCCN(C)C,90.4
c1ccc2c(-c3ccncc3)c[nH]c2c1,97.1
CN1CCN(c2ccc3nc(-c4c(N)c5c(F)cccc5[nH]c4=O)[nH]c3c2)CC1,6.3
O=C1Cc2c([nH]c3ccc(Br)cc23)-c2ccccc2N1,59.1
Cc1ccc(S(=O)(=O)/C=C/C#N)cc1,94.2
O=C1NC(=O)c2c1c1c3ccccc3[nH]c1c1[nH]c3cc(Br)ccc3c21,88.4
Cc1cc(Nc2cc(N3CCN(C)CC3)nc(Sc3ccc(NC(=O)C4CC4)cc3)n2)[nH]n1,33.9
O=C1Nc2ccc(Br)cc2/C1=C/c1cc2c([nH]1)CCCC2,67.2

# Series 4 — method: Phase 2a trial; host: idiopathic pulmonary fibrosis patients
# SMILES: CC(C)n1cnc(-c2ccc(F)cc2)c1-c1ncc(C(=O)Nc2ccc(N3CCN(C)CC3)cc2)[nH]1
test,setting,patients with adverse events
item: blood alkaline phosphatase increased,"dose not given, grade 4 maximum intensity, all arms",0%
item: blood alkaline phosphatase increased,"30 mg once daily, grade 3 maximum intensity",0%
item: eye disorders (SOC),"30 mg once daily, grade 4 maximum intensity",0%
item: vision blurred,"dose not given, grade 3 maximum intensity, all arms",0%
item: gamma-glutamyltransferase increased,"60 mg once daily, grade 1 maximum intensity",0%
item: gamma-glutamyltransferase increased,"30 mg once daily, grade 5 maximum intensity",0%
item: respiratory tract infection,"60 mg once daily, grade 4 maximum intensity",0%
item: back pain,"dose not given, grade 3 maximum intensity, all arms",0%
item: eye disorders (SOC),"30 mg once daily, grade 5 maximum intensity",0%
item: respiratory tract infection,"dose not given, grade 5 maximum intensity, all arms",0%
item: reticulocyte count increased,"60 mg once daily, grade 3 maximum intensity",0%
item: respiratory tract infection,"30 mg once daily, grade 5 maximum intensity",0%
item: respiratory tract infection,"30 mg once daily, grade 1 maximum intensity",0%
item: neutrophil count increased,"60 mg once daily, grade 2 maximum intensity",0%
item: blood creatine phosphokinase increased,"60 mg once daily, grade 4 maximum intensity",0%
item: blood bilirubin increased,"60 mg once daily, grade 5 maximum intensity",0%
